Experimental data of several laboratories.
A part holds a random share of what one study measured. Changes are numbered by the printed parent chain.

Block 1
Target: OGT, full length, His-tagged (human)
Technique: phage display, sequencing
Medium: in vitro
Concentration: 1 µg OGT
Setting: single substitutions, 15-mer displayed peptide, unchanged parent 5.27
Relative to: input library
Reading: higher = stronger binding
Starting sequence: peptide; GDFPVMFMPKYSIIY
`F3T` has a fold enrichment of 3.67 fold.
For `F7N`, the fold enrichment was 0.746 fold.
With `V5M` the fold enrichment was 6.41 fold.
`S12G` has a fold enrichment of 0.831 fold.
`M6D` has a fold enrichment of 6.23 fold.
`I14D` gave a fold enrichment of 1.62 fold.

Block 2
Target: Histone acetyltransferase KAT6A, both winged helices, GST fusion (KAT6A, Homo sapiens, UniProt Q92794, residues 1-181)
Technique: protein binding microarray
Molecule type: double-stranded DNA, one strand shown
Medium: in vitro
Concentration: not given
Setting: 8-mer, flanks averaged, mean of 2 arrays, mostly near background
Relative to: not given
Reading: higher = stronger binding
Construct (chain): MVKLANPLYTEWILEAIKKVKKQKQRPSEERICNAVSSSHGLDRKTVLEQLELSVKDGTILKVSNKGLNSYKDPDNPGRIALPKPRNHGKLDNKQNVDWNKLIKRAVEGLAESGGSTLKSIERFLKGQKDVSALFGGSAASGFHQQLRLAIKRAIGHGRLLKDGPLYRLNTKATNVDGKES
The E-score of `AGCCCCTC` is reported as -0.124.
For `ATGTGGTA`, the E-score was -0.0422.
For `CTGACATA`, the E-score was -0.102.
`AAGTAGTA` has an E-score of -0.0897.
`TCAAATCA` gave an E-score of -0.0885.
`AGCGTACT` gave an E-score of 0.0961.

Block 3
Target: CCNE2, cyclin fold, Cln2 fusion (human)
Technique: yeast growth competition, sequencing
Medium: yeast
Setting: weak parent motif
Relative to: not given
Reading: higher = stronger binding
Starting sequence: CDC42EP1 docking peptide (human); SLVVGKLSFDSSP; partner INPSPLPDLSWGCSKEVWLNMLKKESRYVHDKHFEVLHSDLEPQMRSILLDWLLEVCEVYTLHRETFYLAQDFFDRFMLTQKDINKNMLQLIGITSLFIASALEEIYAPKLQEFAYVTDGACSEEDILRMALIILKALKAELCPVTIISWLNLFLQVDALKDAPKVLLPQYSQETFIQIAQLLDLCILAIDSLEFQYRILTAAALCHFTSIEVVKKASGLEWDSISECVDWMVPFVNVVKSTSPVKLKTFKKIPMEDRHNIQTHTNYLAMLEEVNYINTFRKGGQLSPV
For `SLVVGKLAFDSSP [S8A]`, “normalised enrichment score” read -0.155.
`SLVVGALSFDSSP [K6A]` — result for “normalised enrichment score”: -0.0478.
`SLVVGKLSADSSP [F9A]` — result for “normalised enrichment score”: -0.356.
`SLVVGKLSFASSP [D10A]` — result for “normalised enrichment score”: 0.591.
`ALVVGKLSFDSSP [S1A]` — result for “normalised enrichment score”: 0.14.
`SLVVGKLSFDSSA [P13A]`: “normalised enrichment score” -0.0754.

Mixed results
`PhoQ, residues 284 288 289 292 302 303 TYGVAM` has a fold induction of 16.7 (PhoP, residues 12 14 15 18 19 SQCLL (Escherichia coli, UniProt P23836); Sort-seq, refers to: YFP reporter; E. coli; PhoQ-PhoP variant library, with: 10 µM Mg2+; relative to: high Mg2+ state, higher = stronger signaling).

Repeated from above (block 2):
`AAGTAGTA` has an E-score of -0.0897.
